Published values from different studies.
A part holds a random share of what one study measured.

Study 1
Target: Beta-3 adrenergic receptor (ADRB3, Homo sapiens, UniProt P13945)
UniProt P13945, sequence (whole entry, looked up): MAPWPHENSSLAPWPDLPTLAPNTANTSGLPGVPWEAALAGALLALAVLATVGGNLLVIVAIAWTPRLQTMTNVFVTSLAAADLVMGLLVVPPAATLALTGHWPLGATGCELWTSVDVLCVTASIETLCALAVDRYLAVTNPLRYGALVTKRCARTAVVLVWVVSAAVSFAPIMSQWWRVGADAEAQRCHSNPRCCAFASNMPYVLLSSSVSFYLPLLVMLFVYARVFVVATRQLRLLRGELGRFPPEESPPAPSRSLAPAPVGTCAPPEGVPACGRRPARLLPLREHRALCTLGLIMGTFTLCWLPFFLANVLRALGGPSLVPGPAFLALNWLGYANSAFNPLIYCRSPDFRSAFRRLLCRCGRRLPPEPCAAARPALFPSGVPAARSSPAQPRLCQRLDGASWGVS
Observed: binding
Method: radioligand binding
Concentration: 10 µM
The inhibition of `O=C(Nc1cnc(Oc2ccc(F)cc2)nc1)N1CCc2ncccc2[C@@H]1c1ccc(F)cc1` is reported as -13.7%.
The inhibition of `Cc1c[nH]c2nccc(Oc3c(F)cc(Nc4cc(Cl)nc(N)n4)cc3F)c12` is reported as 22%.
With `CC(C)CC(=O)N1CCc2nc(-c3ccc(Br)cc3)nc(N(C)Cc3ccccc3)c2C1` the inhibition was 12.3%.
With `O=C(Nc1cccnn1)N1CC(CC=Cc2cncc(Oc3ccc(C(F)(F)F)cn3)n2)C1` the inhibition was -10.1%.
For `COc1cc(-c2cn(C3CCc4ccccc4N(CC(F)(F)F)C3=O)nn2)ccc1-n1ccc(C)n1` (stereo not drawn), the inhibition was -11.6%.
`O=C1c2ccc(Nc3ccc(F)cc3F)cc2CCc2ccc(OC[C@H](O)CO)cc21` gave an inhibition of -12.4%.
For `CC(=O)c1c(NS(C)(=O)=O)c2cc(-c3ccc(Cl)cc3)c(-c3ccc(Cl)cc3Cl)nc2n(C)c1=O`, the inhibition was 69.3%.
With `CC1=C(C#N)[C@@H](c2ccc3[nH]nc(C)c3c2)C(C#N)=C(c2ccc(Cl)cc2)N1` the inhibition was 24.3%.
The inhibition of `O=C([C@H]1C[C@H](O)CN1c1ccc(Cl)cc1)N1CC2COCC(C1)N2Cc1ccc(Cl)cc1` is reported as -9.84%.
`CC(=O)Nc1nc(CN2CCC[C@H](Cc3cc(C)nc(C)c3)C2)cs1` gave an inhibition of -8.59%.
For `Nc1c(C(=O)NCc2ccc(C(=O)NCCCC3CCCCC3)cc2)cnn1-c1ccccc1`, the inhibition was 21.8%.
The inhibition of `O=C1CCc2cc(Nc3cc(OC4CCOCC4)c([N+](=O)[O-])cc3Cl)ccc2N1` is reported as 7.73%.
With `CC(=O)Nc1c(F)cc(C(=O)N[C@H]2CC[C@H](O)CC2)cc1O[C@@H](C)c1ccccc1` the inhibition was 17.5%.
The inhibition of `Cc1c(NC(=O)c2cc(C(N)=O)nc3cc(F)ccc23)c(C(F)(F)F)nn1Cc1ccc(C(C)(C)C)cc1` is reported as -10.9%.
For `COCc1nc2cnc3cc(-c4c(C)noc4C)c(OC[C@H]4CCNC4)cc3c2n1[C@H](C)c1ccccc1`, the inhibition was 10.5%.
`CS(=O)(=O)NCC[C@H](NC(=O)c1cncc2c1cnn2-c1ccc(F)cc1)c1ccnc(S(C)(=O)=O)c1` gave an inhibition of -5.01%.
`COc1cccc(CNC(=O)c2nc3scc(COCc4ccc(C(=O)O)cc4)c3c(=O)[nH]2)c1` has an inhibition of 7.44%.
`C[C@H](NC(=O)c1cnc2n1[C@](C)(Cc1ccc(C#N)cc1)C(=O)N2c1cc(Cl)c(F)c(Cl)c1)C(=O)NC1(c2ccccn2)CC1` gave an inhibition of 12.4%.
With `CC(=O)N1CCC(c2ccc(C(=O)NC(=N)N)cc2C(F)(F)F)CC1` the inhibition was 5.47%.
For `CN(C)C(=O)Cn1cc(-c2nc([C@@](C)(c3ccc(-c4cnc(N)nc4)cc3)C3CC3)no2)cn1`, the inhibition was 9.54%.
With `O=C(NC[C@@H]1[C@H]2CN(C(=O)OCc3cc(C(F)(F)F)cc(C(F)(F)F)c3)C[C@@H]12)c1ccc2[nH]nnc2c1` the inhibition was 31.5%.
The inhibition of `CNC(=O)Nc1ccc2c(c1)[C@]1(CC2)OC(=O)N(CC(=O)N(Cc2ccc(F)cc2)[C@@H](C)C(F)(F)F)C1=O` is reported as -12.1%.
For `Cc1nc(N2CC[C@@H](O)C2)ncc1-c1cc(C(F)(F)F)cc2[nH]ncc12`, the inhibition was 20.7%.
`CCOC(=O)c1cc2cc(-c3cc(C(=O)NCc4ccc(C(=O)O)cc4)nn3C)ccc2[nH]1` has an inhibition of -6.63%.

Study 2
SMILES: COc1cc(C(=O)N2CCC(N3CCN(C)CC3)CC2)ccc1Nc1ncc2c(n1)N(C)c1ccccc1C(=O)N2C
Method: KINOMEscan
Concentration: 10 µM
Baseline: DMSO control
Direction: lower = stronger binding
It gave 74% for binding (CAMK1G).
It gave 100% for binding (MAST1).
For EPHA6: binding read 89%.
The binding was 88% (HIPK2).
It gave 84% for binding (EGFR).
The binding was 100% (FYN).
It gave 100% for binding (EPHB2).
It gave 31% for binding (CAMKK2).
It gave 98% for binding (PRKG1).
It gave 98% for binding (TAK1).
It gave 100% for binding (PIK3C2B).
The binding was 100% (ERBB4).

Study 3
Target: Aurora kinase B (AURKB, Homo sapiens, UniProt Q96GD4)
UniProt Q96GD4, sequence (whole entry, looked up): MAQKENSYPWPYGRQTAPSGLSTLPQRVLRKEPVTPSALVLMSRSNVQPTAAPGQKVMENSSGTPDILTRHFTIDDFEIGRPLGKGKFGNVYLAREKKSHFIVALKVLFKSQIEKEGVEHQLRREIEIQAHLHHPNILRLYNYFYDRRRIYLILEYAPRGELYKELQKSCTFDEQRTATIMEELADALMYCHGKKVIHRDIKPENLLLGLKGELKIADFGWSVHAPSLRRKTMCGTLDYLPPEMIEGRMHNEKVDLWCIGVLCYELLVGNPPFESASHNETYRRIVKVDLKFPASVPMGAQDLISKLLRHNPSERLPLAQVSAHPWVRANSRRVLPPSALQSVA
Observed: enzyme activity
Action: inhibitor
Concentration: 0.5 µM
Baseline: control
The remaining activity of `COc1ccc(Cl)cc1NC(=O)Nc1cc(C)nc2ccccc12` is reported as 95.9%.
The remaining activity of `Cn1cnc2cc3c(Nc4cccc(Br)c4)ncnc3cc21` is reported as 78.2%.
`O=c1cc(N2CCOCC2)oc2c1ccc1ccccc12` gave a remaining activity of 97.6%.
`Cc1ccc(NC(=O)c2ccc(CN3CCN(C)CC3)cc2)cc1Nc1nccc(-c2cccnc2)n1` gave a remaining activity of 97.2%.
The remaining activity of `O=C1NC(=O)/C(=C/c2ccc3nccnc3c2)S1` is reported as 101%.
The remaining activity of `CC(=O)O/N=C1/C(c2c(O)[nH]c3cc(Br)ccc23)=Nc2ccccc21` is reported as 81%.
`CC(C)c1nn(-c2c(Cl)cccc2Cl)c2nc(Cc3ccc(OCCO)cc3)[nH]c(=O)c12` has a remaining activity of 104%.
`C[S+]([O-])c1ccc(-c2nc(-c3ccncc3)c(-c3ccc(F)cc3)[nH]2)cc1` (stereo not drawn) has a remaining activity of 87.7%.
The remaining activity of `COc1cc2ncnc(Nc3ccc(OCc4ccccc4)cc3)c2cc1OC` is reported as 50.3%.
`Cn1cc(/C=C2\C(=O)Nc3ccc(S(N)(=O)=O)cc32)c2ccccc21` gave a remaining activity of 10.5%.
`CC(C)[C@H](CO)Nc1nc(Nc2cccc(Cl)c2)c2ncn(C(C)C)c2n1` gave a remaining activity of 97%.
The remaining activity of `CCC(=O)Nc1ccc2ncnc(Nc3cccc(Br)c3)c2c1` is reported as 95.4%.
`CN(C)CCCn1cc(C2=C(c3c[nH]c4ccccc34)C(=O)NC2=O)c2ccccc21` has a remaining activity of 86.6%.
`Nc1[nH]nc2nnc(-c3c(-c4ccccc4)nn4ccccc34)cc12` gave a remaining activity of 96.8%.
With `CCN1/C(=C/C(C)=O)Sc2ccc(OC)cc21` the remaining activity was 87.9%.
`CCOc1cc2ncnc(Nc3cccc(Br)c3)c2cc1OCC` has a remaining activity of 91.9%.
For `O=C(Nc1ccc(Cl)cc1)c1ccccc1NCc1ccncc1`, the remaining activity was 77.7%.
The remaining activity of `COc1ccc(-c2cnc3c(-c4ccsc4)cnn3c2)cc1` is reported as 50.8%.
For `COc1cc2ncnc(N3CCN(C(=O)Nc4ccc(Oc5ccccc5)cc4)CC3)c2cc1OC`, the remaining activity was 76.1%.
For `COc1cc2ncc(-c3ccccc3)nc2cc1OC`, the remaining activity was 74.4%.
For `Cc1nc(Nc2ncc(C(=O)Nc3c(C)cccc3Cl)s2)cc(N2CCN(CCO)CC2)n1`, the remaining activity was 92.5%.

Study 4
SMILES: CC(C)n1cnc(-c2ccc(F)cc2)c1-c1ncc(C(=O)Nc2ccc(N3CCN(C)CC3)cc2)[nH]1
Method: phase 2a clinical trial
Host: idiopathic pulmonary fibrosis patients
For item: investigations (SOC); dose not given, grade 1, all drug arms; baseline: patients: “patients with TEAEs” read 20%.
For item: neoplasms (SOC); 60 mg once daily, grade 1 maximum intensity: “patients with TEAEs” read 0%.
For item: neoplasms (SOC); dose not given, grade 2, all drug arms; baseline: patients: “patients with TEAEs” read 1%.
It gave 0% for “patients with TEAEs” (item: neoplasms (SOC); 30 mg once daily, grade 1 maximum intensity).
For item: neoplasms (SOC); 30 mg once daily, grade 5 maximum intensity: “patients with TEAEs” read 0%.
The “patients with TEAEs” was 0% (item: neoplasms (SOC); 30 mg once daily, grade 4 maximum intensity).
For item: chest discomfort; 60 mg once daily, grade 2 maximum intensity; baseline: patients: “patients with TEAEs” read 1%.
item: reproductive and breast disorders; dose not given, grade 2, all drug arms — “patients with TEAEs”: 0%.
It gave 1% for “patients with TEAEs” (item: respiratory tract infection; dose not given, grade 1, all drug arms; baseline: patients).
item: infections and infestations; 60 mg once daily, grade 2 maximum intensity; baseline: patients — “patients with TEAEs”: 3%.
For item: infections and infestations; dose not given, grade 1, all drug arms; baseline: patients: “patients with TEAEs” read 3%.
For item: infections and infestations; dose not given, grade 3, all drug arms; baseline: patients: “patients with TEAEs” read 5%.

Excerpt of the above (study 4):
item: infections and infestations; 60 mg once daily, grade 2 maximum intensity; baseline: patients — “patients with TEAEs”: 3%.
item: reproductive and breast disorders; dose not given, grade 2, all drug arms — “patients with TEAEs”: 0%.
It gave 1% for “patients with TEAEs” (item: respiratory tract infection; dose not given, grade 1, all drug arms; baseline: patients).
For item: neoplasms (SOC); dose not given, grade 2, all drug arms; baseline: patients: “patients with TEAEs” read 1%.
For item: neoplasms (SOC); 60 mg once daily, grade 1 maximum intensity: “patients with TEAEs” read 0%.
For item: investigations (SOC); dose not given, grade 1, all drug arms; baseline: patients: “patients with TEAEs” read 20%.
For item: neoplasms (SOC); 30 mg once daily, grade 5 maximum intensity: “patients with TEAEs” read 0%.
